Experimental data from different studies.
Each numbered part is a random draw from the data of one study; scales do not carry over between parts. “And” joins repeats or separate records; there may be more than shown.

Set 1
Cell line: MDA-MB-231
Read-out: cell viability
Technique: CellCounting-Lite
Tested at: 0.3048 nM
Temperature: 37 °C
Direction: higher = more viable cells
Endpoint: luminescence signal
CCn1cnc2c(NCc3nc4cc(Cl)c(Cl)cc4[nH]3)nc(N3CCN(C(C)=O)CC3)nc21: 436000 a.u. and 445000 a.u.
CC(=O)N1CCN(c2nc(NCc3nc4cc(Cl)c(Cl)cc4[nH]3)c3ncn(-c4cnn(C)c4)c3n2)CC1: 526000 a.u. and 490000 a.u. and 463000 a.u.
CCn1cnc2c(NCc3nc4cc(Cl)c(Cl)cc4[nH]3)nc(N3CCN(C(=O)c4ccccn4)CC3)nc21: 460000 a.u. and 443000 a.u. and 403000 a.u.
CCn1cnc2c(NCc3nc4cc(Cl)c(Cl)cc4[nH]3)nc(N3CCN(C(=O)c4ccncc4)CC3)nc21: 480000 a.u. and 443000 a.u. and 507000 a.u.
CCn1cnc2c(NCc3nc4cc(Cl)c(Cl)cc4[nH]3)nc(N3CCC(NC(C)=O)CC3)nc21: 434000 a.u. and 506000 a.u. and 451000 a.u.
CCn1cnc2c(NCc3nc4cc(Cl)c(Cl)cc4[nH]3)nc(N3CCN(C(=O)c4cccnc4)CC3)nc21: 431000 a.u. and 398000 a.u. and 458000 a.u.
CCn1cnc2c(NCc3nc4cc(Cl)c(Cl)cc4[nH]3)nc(N3CCN(C(=O)c4ccccc4)CC3)nc21: 445000 a.u. and 473000 a.u. and 440000 a.u.
CCCCOc1nc(NCc2nc3cc(Cl)c(Cl)cc3[nH]2)c2ncn(CC)c2n1: 485000 a.u. and 596000 a.u. and 456000 a.u.

Set 2
Compound: Cc1ncsc1-c1ccc(C(CO)NC(=O)C2CC(O)CN2C(=O)C(C(C)C)n2cc(-c3ccc(COc4c(-c5c(C)c(F)cc6[nH]ncc56)c(C5CC5)cc5c(N6CC7CC6CN7)nc(OC6CCOCC6)nc45)cc3)nn2)cc1 (centres unmarked)
Technique: qRT-PCR
Species: mouse, PK-59 xenograft
Sample: tumour
Setting: unit not given
Endpoint: mRNA level
item: ETV4; intravenous, 30 mg/kg, 6 h; relative to: vehicle, same time point: 0.0137 and 0.0117 and 0.00758
item: DUSP6; intravenous, 30 mg/kg, 2 h; relative to: vehicle, same time point: 0.129 and 0.104 and 0.0714
item: ETV4; intravenous, 10 mg/kg, 24 h; relative to: vehicle, same time point: 0.00191
item: FOSL1; 30 mg/kg, 24 h; relative to: vehicle: 0.0405 and 0.04 and 0.036 and 0.0355 and 0.041
item: DUSP6; 30 mg/kg, 144 h; relative to: vehicle: 0.244 and 0.246
item: DUSP4; intravenous, 10 mg/kg, 2 h; relative to: vehicle, same time point: 0.507 and 0.409 and 0.548
item: DUSP4; 10 mg/kg, 48 h; relative to: vehicle: 0.296 and 0.215 and 0.308

Further values, each from its own experiment
COc1ccc(Nc2c3c(nc4ccccc24)CCC3)cc1 — IC50 (Leishmania donovani; parasite growth; THP-1; intracellular, amastigote): 4.87 µM
Cn1cc(-c2cccc(CN3CCC4(CC3)COc3c4ccc4c3CN([C@H]3CCC(=O)NC3=O)C4=O)c2)cn1 — efflux ratio (Caco-2; relative to: Papp B-A over Papp A-B): 4.47
O=C(CN1CCOCC1)Nc1c2c(nc3ccccc13)CCC2 — inhibition (Leishmania donovani; DD8, promastigotes; 16.7 µM): inactive
COC(=O)c1ccc(Nc2c3c(nc4ccccc24)CCC3)cc1 — IC50 (Leishmania donovani; parasite growth; THP-1; intracellular, amastigote): 9.87 µM
Fc1cccc(Nc2c3c(nc4ccccc24)CCC3)c1 — IC50 (Leishmania donovani; parasite growth; THP-1; intracellular, amastigote): 5.46 µM

Repeated from above (further values, each from its own experiment):
COc1ccc(Nc2c3c(nc4ccccc24)CCC3)cc1 — IC50 (Leishmania donovani; parasite growth; THP-1; intracellular, amastigote): 4.87 µM
Cn1cc(-c2cccc(CN3CCC4(CC3)COc3c4ccc4c3CN([C@H]3CCC(=O)NC3=O)C4=O)c2)cn1 — efflux ratio (Caco-2; relative to: Papp B-A over Papp A-B): 4.47
